Published values collected from several papers.
Numbered parts are unrelated; each lists some results of a single study. Numbers after ± are the reported error.
UniProt O75914, sequence (whole entry, looked up): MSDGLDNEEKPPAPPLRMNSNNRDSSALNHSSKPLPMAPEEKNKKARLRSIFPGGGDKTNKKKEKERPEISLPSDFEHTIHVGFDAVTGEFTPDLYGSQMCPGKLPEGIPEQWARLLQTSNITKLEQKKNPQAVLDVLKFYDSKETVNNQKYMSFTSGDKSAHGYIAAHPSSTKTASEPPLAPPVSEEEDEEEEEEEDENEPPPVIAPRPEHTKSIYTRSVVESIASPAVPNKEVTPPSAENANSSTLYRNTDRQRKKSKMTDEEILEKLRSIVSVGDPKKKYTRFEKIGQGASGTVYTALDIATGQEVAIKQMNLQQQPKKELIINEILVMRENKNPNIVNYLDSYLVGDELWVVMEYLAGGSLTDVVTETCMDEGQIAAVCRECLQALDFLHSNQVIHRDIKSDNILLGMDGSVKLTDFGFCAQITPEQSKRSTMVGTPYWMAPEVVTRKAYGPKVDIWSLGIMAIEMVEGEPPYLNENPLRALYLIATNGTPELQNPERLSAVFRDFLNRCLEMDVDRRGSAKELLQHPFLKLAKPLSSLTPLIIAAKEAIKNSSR
UniProt Q8N4C8, sequence (whole entry, looked up): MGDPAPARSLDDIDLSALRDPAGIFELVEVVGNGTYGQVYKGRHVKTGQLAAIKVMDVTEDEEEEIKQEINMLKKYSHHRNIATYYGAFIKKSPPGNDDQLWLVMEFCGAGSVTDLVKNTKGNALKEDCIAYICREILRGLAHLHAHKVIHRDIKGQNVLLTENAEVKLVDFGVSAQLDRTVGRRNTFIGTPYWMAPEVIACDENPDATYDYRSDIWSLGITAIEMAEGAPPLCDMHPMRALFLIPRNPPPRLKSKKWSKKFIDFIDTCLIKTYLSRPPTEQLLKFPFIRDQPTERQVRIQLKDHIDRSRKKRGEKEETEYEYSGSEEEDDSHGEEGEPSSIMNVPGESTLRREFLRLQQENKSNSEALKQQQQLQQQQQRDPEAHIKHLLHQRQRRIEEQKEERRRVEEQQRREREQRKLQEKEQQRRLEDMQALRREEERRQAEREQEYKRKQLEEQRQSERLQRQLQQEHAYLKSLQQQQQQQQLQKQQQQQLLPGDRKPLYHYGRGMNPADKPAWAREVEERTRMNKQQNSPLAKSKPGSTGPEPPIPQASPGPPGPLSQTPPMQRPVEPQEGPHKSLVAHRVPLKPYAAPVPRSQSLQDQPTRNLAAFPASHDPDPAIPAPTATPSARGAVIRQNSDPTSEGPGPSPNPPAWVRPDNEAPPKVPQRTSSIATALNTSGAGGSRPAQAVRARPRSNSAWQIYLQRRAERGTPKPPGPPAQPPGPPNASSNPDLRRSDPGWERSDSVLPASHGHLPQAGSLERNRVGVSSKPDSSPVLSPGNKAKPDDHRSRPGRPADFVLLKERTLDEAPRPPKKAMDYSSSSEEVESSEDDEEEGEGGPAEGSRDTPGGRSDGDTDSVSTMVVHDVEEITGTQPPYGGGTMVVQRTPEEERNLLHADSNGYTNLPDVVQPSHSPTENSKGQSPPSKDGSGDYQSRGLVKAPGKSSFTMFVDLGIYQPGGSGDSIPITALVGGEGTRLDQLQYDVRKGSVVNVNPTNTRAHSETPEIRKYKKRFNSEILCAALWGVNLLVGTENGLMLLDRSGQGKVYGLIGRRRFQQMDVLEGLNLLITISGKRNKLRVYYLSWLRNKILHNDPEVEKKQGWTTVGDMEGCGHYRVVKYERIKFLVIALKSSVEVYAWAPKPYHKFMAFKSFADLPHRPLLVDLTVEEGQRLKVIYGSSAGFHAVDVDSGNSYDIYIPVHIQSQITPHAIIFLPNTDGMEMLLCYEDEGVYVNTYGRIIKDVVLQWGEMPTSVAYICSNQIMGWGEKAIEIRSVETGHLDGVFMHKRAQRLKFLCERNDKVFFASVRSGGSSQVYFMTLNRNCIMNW
UniProt Q9UEE5, sequence (whole entry, looked up): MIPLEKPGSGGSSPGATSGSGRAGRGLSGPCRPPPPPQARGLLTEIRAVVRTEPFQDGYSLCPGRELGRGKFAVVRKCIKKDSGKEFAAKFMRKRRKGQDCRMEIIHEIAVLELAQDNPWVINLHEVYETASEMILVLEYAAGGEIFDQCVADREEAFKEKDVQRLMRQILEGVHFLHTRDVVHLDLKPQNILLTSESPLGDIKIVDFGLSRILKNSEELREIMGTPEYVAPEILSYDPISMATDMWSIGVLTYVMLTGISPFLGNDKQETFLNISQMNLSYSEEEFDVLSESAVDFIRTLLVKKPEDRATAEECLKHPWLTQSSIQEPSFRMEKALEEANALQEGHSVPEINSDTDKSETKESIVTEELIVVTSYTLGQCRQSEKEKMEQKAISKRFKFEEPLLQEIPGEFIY
UniProt Q16566, sequence (whole entry, looked up): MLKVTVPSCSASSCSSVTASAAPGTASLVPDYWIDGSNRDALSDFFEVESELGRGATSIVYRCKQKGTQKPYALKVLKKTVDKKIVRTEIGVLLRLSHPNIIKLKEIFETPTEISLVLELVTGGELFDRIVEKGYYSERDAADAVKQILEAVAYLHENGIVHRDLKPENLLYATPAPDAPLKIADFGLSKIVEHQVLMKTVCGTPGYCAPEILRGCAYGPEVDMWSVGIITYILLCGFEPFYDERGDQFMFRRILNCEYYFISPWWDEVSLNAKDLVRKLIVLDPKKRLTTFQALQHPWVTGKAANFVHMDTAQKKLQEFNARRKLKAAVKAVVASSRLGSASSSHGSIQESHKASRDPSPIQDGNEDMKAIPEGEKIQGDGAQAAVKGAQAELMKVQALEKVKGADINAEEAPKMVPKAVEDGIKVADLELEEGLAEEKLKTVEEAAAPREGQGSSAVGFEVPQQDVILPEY
UniProt O75676, sequence (whole entry, looked up): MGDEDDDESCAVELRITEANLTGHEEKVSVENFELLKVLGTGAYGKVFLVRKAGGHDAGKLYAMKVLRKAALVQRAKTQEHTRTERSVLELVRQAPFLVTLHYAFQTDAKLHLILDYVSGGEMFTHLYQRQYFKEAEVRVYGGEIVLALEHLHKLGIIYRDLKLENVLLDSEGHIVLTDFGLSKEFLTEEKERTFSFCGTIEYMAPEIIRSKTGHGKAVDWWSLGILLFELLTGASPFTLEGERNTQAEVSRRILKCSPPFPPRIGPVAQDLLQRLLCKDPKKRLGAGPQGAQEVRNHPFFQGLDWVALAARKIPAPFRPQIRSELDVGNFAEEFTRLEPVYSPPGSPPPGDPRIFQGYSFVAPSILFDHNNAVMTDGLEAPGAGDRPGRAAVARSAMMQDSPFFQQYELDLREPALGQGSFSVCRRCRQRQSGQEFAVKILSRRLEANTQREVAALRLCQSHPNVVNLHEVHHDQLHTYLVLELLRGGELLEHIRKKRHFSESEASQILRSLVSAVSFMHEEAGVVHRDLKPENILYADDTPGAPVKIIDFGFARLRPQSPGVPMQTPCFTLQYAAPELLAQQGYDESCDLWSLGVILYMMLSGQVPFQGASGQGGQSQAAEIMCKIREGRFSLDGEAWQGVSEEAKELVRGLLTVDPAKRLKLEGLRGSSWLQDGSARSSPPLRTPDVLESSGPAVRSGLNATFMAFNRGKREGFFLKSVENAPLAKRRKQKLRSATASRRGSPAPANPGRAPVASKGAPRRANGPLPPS
UniProt Q13237, sequence (whole entry, looked up): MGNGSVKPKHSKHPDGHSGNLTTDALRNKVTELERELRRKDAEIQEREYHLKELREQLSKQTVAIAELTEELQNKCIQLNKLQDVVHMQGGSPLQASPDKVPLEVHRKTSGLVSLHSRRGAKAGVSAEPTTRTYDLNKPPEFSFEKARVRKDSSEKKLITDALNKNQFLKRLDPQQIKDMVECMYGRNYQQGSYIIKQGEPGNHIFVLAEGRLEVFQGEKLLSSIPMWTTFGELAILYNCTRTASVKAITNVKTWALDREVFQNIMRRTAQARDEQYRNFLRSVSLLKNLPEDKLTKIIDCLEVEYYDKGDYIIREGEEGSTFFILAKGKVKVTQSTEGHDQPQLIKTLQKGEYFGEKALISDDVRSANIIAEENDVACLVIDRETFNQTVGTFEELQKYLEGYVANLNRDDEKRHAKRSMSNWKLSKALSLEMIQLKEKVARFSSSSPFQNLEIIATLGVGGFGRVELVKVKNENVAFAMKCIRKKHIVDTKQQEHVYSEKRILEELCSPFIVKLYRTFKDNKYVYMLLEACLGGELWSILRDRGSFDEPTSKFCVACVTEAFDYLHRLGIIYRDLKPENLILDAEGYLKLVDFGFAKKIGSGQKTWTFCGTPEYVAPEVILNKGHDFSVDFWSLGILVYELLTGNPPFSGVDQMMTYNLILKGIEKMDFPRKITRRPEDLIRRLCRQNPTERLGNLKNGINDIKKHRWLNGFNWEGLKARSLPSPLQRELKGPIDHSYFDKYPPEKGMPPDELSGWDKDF
UniProt P0C1S8, sequence (whole entry, looked up): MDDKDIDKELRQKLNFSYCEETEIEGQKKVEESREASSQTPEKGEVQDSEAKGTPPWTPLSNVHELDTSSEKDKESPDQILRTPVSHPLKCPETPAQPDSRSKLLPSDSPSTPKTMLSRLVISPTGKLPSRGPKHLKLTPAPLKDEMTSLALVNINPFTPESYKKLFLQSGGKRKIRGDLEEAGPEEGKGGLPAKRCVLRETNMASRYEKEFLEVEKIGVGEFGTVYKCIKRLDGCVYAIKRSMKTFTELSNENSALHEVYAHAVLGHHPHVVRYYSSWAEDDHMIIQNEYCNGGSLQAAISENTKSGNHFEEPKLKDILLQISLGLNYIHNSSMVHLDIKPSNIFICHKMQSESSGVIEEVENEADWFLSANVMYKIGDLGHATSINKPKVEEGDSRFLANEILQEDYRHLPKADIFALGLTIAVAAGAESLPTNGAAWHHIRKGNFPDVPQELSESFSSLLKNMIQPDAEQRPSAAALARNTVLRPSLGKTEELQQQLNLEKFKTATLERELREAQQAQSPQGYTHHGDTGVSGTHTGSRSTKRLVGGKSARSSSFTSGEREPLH

Study 1
Species: mouse
Matrix: microsomes or S9
Concentration: 2 µM
Time: 0.5 h
Endpoint: remaining compound
COC(=O)c1cccc(NC(=O)N2Cc3c(sc4c3CCCC4)-n3cccc3C2C(C)C)c1 (stereo not drawn): 10%
CCOc1cc(=O)n2c(c1C(=O)Nc1cc(OC)c(Cl)cc1OC)CCCC2: 94.7%
Cc1oc(-c2ccccc2)nc1CNC1(c2ccccc2)CCOCC1: 0.94%
O=S(=O)(Nc1ccc(Br)cc1)C1CCCCC1O (stereo not drawn): 47.8%
N#Cc1nc(-c2cccc3ccccc23)oc1NCc1cccnc1: 6.15%
CC1(C)CON(Cc2cc(-c3ccccc3)sc2Cl)C1=O: 16.2%
COCCN(C)C(=O)Cn1c(-c2ccccc2)nn(-c2cccc(C)c2)c1=O: 52%
CN(c1nccc2c(Br)csc12)C1CCN(C(=O)OC(C)(C)C)CC1: 0.539%

Study 2
SMILES: COc1cc(C(=O)N2CCC(N3CCN(C)CC3)CC2)ccc1Nc1ncc2c(n1)N(C)c1ccccc1C(=O)N2C
Effect on: kinase activity
Endpoint: remaining activity
ERK1; 10 µM: 104%
LKB1; 10 µM: 78%
TTK; 1 µM: 84 ± 9%
CAMK1; 10 µM: 43 ± 5%
TAK1; 10 µM: 82 ± 3%
p38g MAPK; 10 µM: 106 ± 3%
PAK5; 10 µM: 89 ± 1%
FGF-R1; 1 µM: 83 ± 4%
PDK1; 1 µM: 68 ± 2%

Study 3
SMILES: O=C1Cc2c([nH]c3ccc([N+](=O)[O-])cc23)-c2ccccc2N1
Effect on: enzyme activity
Mode: inhibitor
Concentration: 0.5 µM
Baseline: control
Endpoint: remaining activity
CAMK4 (Homo sapiens, UniProt Q16566): 89.2%
MAPK1 (Homo sapiens, UniProt P28482): 106%
MINK1 (Homo sapiens, UniProt Q8N4C8): 20.4%
MARK4 (Homo sapiens, UniProt Q96L34): 55.4%
PRKG2 (Homo sapiens, UniProt Q13237): 97.6%
PNCK (Homo sapiens, UniProt Q6P2M8): 107%
CLK3 (Homo sapiens, UniProt P49761): 106%
RPS6KA4 (Homo sapiens, UniProt O75676): 90.6%
AKT2 (Homo sapiens, UniProt P31751): 101%
DCLK2 (Homo sapiens, UniProt Q8N568): 105%
Cyclin-dependent kinase 1, with cyclin A (CDK1, Homo sapiens, UniProt P06493): 54.5%
PAK3 (Homo sapiens, UniProt O75914): 80.4%
CDC42BPB (Homo sapiens, UniProt Q9Y5S2): 83.3%

Study 4
SMILES: CCC(=O)N[C@@H]1CC[C@H](C(=O)N(C)c2ccc(-c3nc4ccccc4o3)cc2)C1
Technique: competition with immobilised ligand
Concentration: 1 µM
Endpoint: remaining binding
INSRR (Homo sapiens, UniProt P14616); cell-free assay: 100%
PAK3 (Homo sapiens, UniProt O75914); cell-free assay: 98%
STK17A (Homo sapiens, UniProt Q9UEE5); cell-free assay: 100%
WEE2 (Homo sapiens, UniProt P0C1S8); cell-free assay: 100%
KIT (Homo sapiens, UniProt P10721, L576P); cell-free assay: 100%
Tyrosine-protein kinase ABL1, non-phosphorylated (ABL1, Homo sapiens, UniProt P00519, F317I); binding: 76%

A few entries again (study 3):
CLK3 (Homo sapiens, UniProt P49761): 106%
RPS6KA4 (Homo sapiens, UniProt O75676): 90.6%
